Measured values gathered from unrelated publications.
Compare with care: the assays were run in different laboratories. ± gives the spread as reported.

Compound | assay | system | conditions | AUC(0-24)
C[C@@H]1CCO[C@H]2Cn3cc(C(=O)NCc4ccc(F)cc4F)c(=O)c(O)c3C(=O)N12 | – | human paediatric patients, weight sample B to under sample C kg, plasma | oral, 50 mg film-coated tablet, steady state, geometric mean, population PK post-hoc, N 6 | 57300 ng·h/mL
Cc1ccc([C@@H]2O[C@H](CO)[C@@H](O)[C@H](O)[C@H]2O)cc1Cc1ccc(-c2ccc(F)cc2)s1 | – | human, maintenance hemodialysis patients | oral, 100 mg once daily, day 8, steady state, median | 7260 ng·h/mL
CC(C)[C@H](N)C(=O)NCCCS(=O)(=O)O | – | human both sexes, plasma | oral, 340 mg BID days 8-13, QD day 14, day 14, fed capsule | 13800 ng·h/mL
CC(=O)O.NC(=O)c1cnc(N[C@@H]2CCCC[C@@H]2N)nc1Nc1cccc(-n2nccn2)c1 | – | human, plasma | oral, 110 mg once daily | 2340 ng·h/mL
Cn1c(=O)oc2ccc(-c3ccc(C[C@@H](C#N)NC(=O)[C@@H]4CNCCCO4)cc3)cc21 | HPLC-MS/MS | healthy male humans, plasma | oral, 10 mg | 2.83 µM·h
CC(C)(Sc1ccncc1-c1ccc(C#N)c2ccccc12)C(=O)O | – | human, plasma | oral, 10 mg once daily, together with: febuxostat 20 mg | 217 ng·h/mL
CO[C@H]1CC[C@H](N2C(=O)CNc3ncc(-c4ccc(C(C)(C)O)nc4)nc32)CC1 | – | human, plasma | oral, 30 mg, day -1, geometric mean | 1140 ng·h/mL
Cc1cc(Nc2cc3ncccc3c(N[C@@H]3C[C@H]4CC[C@@H](C3)N4CCC#N)n2)n[nH]1 | – | human, plasma | 10 mg | 0.868 ng·h/mL
COc1cc(C(=O)NC2CCN(C)CC2)c(F)cc1Nc1ncc(C(F)(F)F)c(Oc2cccc3c2C(=O)N(C)C3)n1 | – | human patients | oral, 25 mg, cycle 1 day 1, geometric mean | 2.18 µM·h
N#Cc1ccc2c(c1)[C@H]1CCCN(C(=O)c3ccc4[nH]cnc4c3)[C@H]1C2 | – | human, plasma | oral, 20 mg once daily, after first dose | 13.2 µM·h
CC(=O)O[C@H]1C(=O)[C@@]2(C)[C@H]([C@H](OC(=O)c3ccccc3)[C@]3(O)C[C@H](OC(=O)[C@H](O)[C@@H](NC(=O)c4ccccc4)c4ccccc4)C(C)=C1C3(C)C)[C@]1(OC(C)=O)CO[C@@H]1C[C@@H]2O | – | human, plasma | intravenous, 80 mg/m^2, day 8, DL3, together with: nilotinib 400 mg | 2.77 ± 0.783 µM·h
Cc1nc(-c2ccc(OCC(C)C)c(C#N)c2)sc1C(=O)O | – | human, plasma | oral, 20 mg once daily, together with: verinurad 10 mg | 2410 ng·h/mL
